Experimental data from different studies.
A part holds a random share of what one study measured. Substitutions count along the parent as printed.

Block 1 — target: UBE2R2 UBC core domain (UniProt Q712K3); technique: yeast two-hybrid; matrix: yeast; notes: mostly zero background; baseline: not given; direction: higher = stronger interaction
B1: RNF31 RING domain (UniProt Q96EP0); chain AFLRRLLAQECAVCGWALPHNRMQALTSCECTICPDCFRQHFTIALKEKHITDMVCPACGRPDLTDDTQLL
B2: TRIM37 RING domain (UniProt O94972); chain SVESIAEVFRCFICMEKLRDARLCPHCSKLCCFSCIRRWLTEQRAQCPHCRAPLQLRELVN
B3: DEF8 RING domain (UniProt Q6ZN54); chain AGRLGCSLTEIHTLFAKHIKLDCERCQAKGFVCELCREGDVLFPFDSHTSVCADCSAVFHRDCYYDNSTTCPKCARLSLRK
B4: RNF183 RING domain (UniProt Q96D59); chain EQQGRELEAECPVCWNPFNNTFHTPKMLDCCHSFCVECLAHLSLVTPARRRLLCPLCRQPTVLASGQP
B5: ANAPC11 RING domain (UniProt Q9NYG5); chain GICRMAFNGCCPDCKVPGDDCPLVWGQCSHCFHMHCILKWLHAQQVQQHCPMCRQEWKFKE
B6: MEX3B RING domain (UniProt Q6ZN04); chain SGLRRKGSRDCSVCFESEVIAALVPCGHNLFCMECANRICEKSEPECPVCHTAVTQAIRIF
Residues (chain): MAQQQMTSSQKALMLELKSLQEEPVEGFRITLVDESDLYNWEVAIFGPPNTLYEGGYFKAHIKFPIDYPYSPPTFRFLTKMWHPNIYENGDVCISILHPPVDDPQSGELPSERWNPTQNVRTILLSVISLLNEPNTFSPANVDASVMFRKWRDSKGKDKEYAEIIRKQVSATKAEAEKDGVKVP
Molecule | lacZ reporter activity
B1 (RNF31 RING domain) | 0
B2 (TRIM37 RING domain) | 0
B3 (DEF8 RING domain) | 0
RYRQMEERITCPICIDSHIRLVFQCGHGACAPCGSALSACPICRQPIRDRIQIF (MIB2 RING domain (UniProt Q96AX9)) | 0
B4 (RNF183 RING domain) | 0
B5 (ANAPC11 RING domain) | 0
YPEEVDDDLICHICLQALLDPLDTPCGHTYCTLCLTNFLVEKDFCPMDRKPLVLQHCKK (LNX1 RING domain (UniProt Q8TBB1)) | 0
FVKTVEDKYKCEKCHLVLCSPKQTECGHRFCESCMAALLSSSSPKCTACQESIVKDKVF (TRAF3 RING domain (UniProt Q13114)) | 0
LDAASGHPLVCPLCHGQYERPCLLDCFHDFCTGCLRGRATDGRLSCPLCQHQTLVKGPSG (Rnf207 RING domain (UniProt Q3V3A7)) | 0
B6 (MEX3B RING domain) | 0
QVQSRTKIEECVVCSDKKAAVLFQPCGHMCACENCANLMKKCVQCRAVVERRVPFI (MIB1 RING domain (UniProt Q86YT6)) | 0

Block 2 — technique: protein binding microarray; form: double-stranded DNA, one strand shown; matrix: in vitro; concentration: not given; baseline: not given; direction: higher = stronger binding
Target: Histone acetyltransferase KAT6A, winged helix 2, GST fusion (KAT6A, Homo sapiens, UniProt Q92794, residues 85-181)
Notes: 8-mer, flanks averaged, mean of 2 arrays, mostly near background
Residues (chain): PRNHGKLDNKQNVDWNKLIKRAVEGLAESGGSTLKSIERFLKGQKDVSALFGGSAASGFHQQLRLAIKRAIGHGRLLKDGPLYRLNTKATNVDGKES
Sequence | E-score
CATCTGAG | -0.0433
AAGGGTTC | 0.00486
GGATTCTA | 0.08
ACGAGTAT | -0.192
ATGATAAT | 0.0385
AGGCCGAA | 0.107
GACAAGAC | -0.0408
GCCAGACA | 0.0311
GAGTCAAC | -0.136
AGTACGAG | -0.135
CCAATTCC | 0.123
ACTGAATC | -0.0487
AAGCATCT | -0.121
CCAGCGCG | 0.217
GTCTCGTA | -0.131
GCCTGTCA | 0.107
AGCCCATG | -0.122
CATTGCAA | -0.171
CAGGTCAA | -0.0391
AGAAACCA | 0.0559

Block 3 — technique: RNA Bind-n-Seq; form: RNA; matrix: in vitro; concentration: 365 nM; baseline: no-protein control; direction: higher = stronger binding
Target: RNA binding protein fox-1 homolog 2, RRM domain, GST-SBP tag (RBFOX2, Homo sapiens, UniProt O43251-10, residues 100-194)
Notes: natural RNA segment, single round, ends assumed
Shared flanks, not repeated: GGGAGUUCUACAGUCCGACGAUC … UGGAAUUCUCGGGUGCCAA
Construct (chain): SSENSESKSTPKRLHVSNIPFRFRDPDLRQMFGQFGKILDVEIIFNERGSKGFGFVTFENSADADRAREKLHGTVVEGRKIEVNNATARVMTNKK
Sequence | RBNS enrichment (R)
CAAGUACGAUUUGACAGUAGUACAAUAACCUGUGCCCAAAACACAAGAAAUACAGAGUAAAGCGAAAAUAACUGCUUACCAAUAUUCUGAGAGGUAACAAAUGGGAUAUG | 0.346
GCCUCCCUUGCAGGUUUGCCAAGUAUCUGCUUCCUGUGGAAGCAAGACCAAAAGGAAACCAACCGAGUGGGGGUUUGGAGGAGUCGGAAGUAGCAUCUCCAGGCAAGCUG | 0.276
UGGUGUGUGUAUUAGAAUCCCUUCCUGCCUUGUUUCAUGGCAGUGAAAUGCCUCUUGGUCCUGUCCAAGUGUAUCUUUCACUGAUUUCUGAAUCAUGUUCUAGUUGCUUG | 1.6
CCGAAAGAUGUUGUCAUUGGCAAUCUGCAGUUGCAAAGGGGGUAGGGUGGUCUCAGAAGGCACGAGGCUUCCUGCCUCUUCCCUCUUCCUCCUUGUAAGAGCUUCAACCC | 0.352
ACACCUGUCAGCCCAAGCAGAGUGAUUCAGGGGCUCCCCGGGGGCAGACACCUGUGCACCCCAUGAGUAGUGCCCACUUGAGGCUGGCACUCCCCUGACCUCACCUUUGC | 0.681
UCUUGCAGGCUGCCUCUUUUAUAUUGGGUCUCUUGGCCCAACUGCUUCCUUCUUGUUAAUAAGGAGACCUGACGCACACAGCCAGUGGAUUCCCCUCCACCUCGGGAGGG | 0.261
AAACAAUCCCCAUCAGGUAGUUGUCCAACCCCCAGCUGGGUUCAACCCUCUCAUUACCCACCUGACCUAGCUGUCCCCUUACUGUGGGCUGGGGGACUUGGGGGCCAUUU | 0.372
CUUGCUGCCAGCCAAAUAAAUUGGUGUUUAGUGAACAUUUUCAGUGUUUCCCCGCCAUGCAAAGCUUGGCGCCUUGGGAGAAAUGUGUGUAAAUGUACAUUGUAUAGGUA | 0.388
UUGGUUUUAAACUUUCUUAUUGCCUUUGGCUGUUGAUUAGUACAGUACAAGUGCGAUUUCAAAAAGAUCUUGAAAGUAAUAUAUUUAAUCAAUUAAAAUGUUUAUCUGUA | 0.434
AGAUGUCCAAACUAAUUUUAACAAACGCAUUAAGAGGUUUAUUUGGGUACAUGGCCCGCAGUGGCUUUUGCCCCAGAAAGGGGAAAGGAACACGCGGGUAGAUGAUUUCU | 0.364
UAGUGUGAGAUUUUUUAUUUCUAAAUUUUGUUGUAUCUUCUAUUACAUAAAUGCAUUGACAAUUAUAAAAUGCAAGUGUUUUUUGAAUGAUUUUAAGAAUUUGGCUUAAA | 0.643
ACAGAAGUGAGCAAAUAAAGUGAGGAAGAAAUCUAUAUAUGAGAUAAUAUAGAUUGUAUUGAAAUCUUGCCUGUGGGUGAGGUUUUUCCUUCCUCCUCCCUGCCCCCUGC | 0.432

Block 4 — target: CCNB3, cyclin fold, Cln2 fusion (human); technique: yeast growth competition, sequencing; matrix: yeast; notes: weak parent motif; baseline: not given; direction: higher = stronger binding
Starting sequence: SAMHD1 docking peptide (human); ASKSRVQLFKDDP
Substitution | normalised enrichment score
R5D | -0.129
L8F | -0.0596
F9E | -0.182
L8R | -0.356
Q7R | 0.296
V6I | -0.267
V6S | -0.591
K3W | 0.106
V6D | -0.383
Q7T | 0.0449
S4Q | -0.136
Q7E | -0.285
K3S | -0.185
L8V | 0.0982
F9N | 0.0634
K10D | -0.0377
D11A | 0.168
Q7D | -0.274
F9L | 0.264
S2D | -0.192
S4R | 0.0343

Block 5 — technique: DHFR PCA, deep sequencing; matrix: yeast; added: (+)-ABA 0.39 µM; baseline: wild-type fitted maximum; direction: higher = stronger binding
Target: ABI1, truncated, D143A, DHFR fusion (Arabidopsis thaliana)
Notes: methotrexate growth selection, single substitutions
Starting sequence: PYL1, truncated, DHFR fusion (Arabidopsis thaliana); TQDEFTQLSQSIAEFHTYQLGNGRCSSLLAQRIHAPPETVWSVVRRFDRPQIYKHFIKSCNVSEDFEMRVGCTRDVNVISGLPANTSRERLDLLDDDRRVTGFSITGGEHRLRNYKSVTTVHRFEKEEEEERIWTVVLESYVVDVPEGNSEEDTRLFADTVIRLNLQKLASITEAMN
Substitution | relative binding score
K54T | -18%
L166A | 10.4%
L94K | -12.9%
A175V | 13.5%
P146L | 18.7%
V62L | 31.7%
R49L | 9.03%
D48E | 7.14%
I33T | -3.1%
T120K | -7.26%
Q167T | 32.1%
Q10W | 10.7%
G108K | -9.39%

For quick reference, copied from above (block 2):
Sequence | E-score
GGATTCTA | 0.08
CATCTGAG | -0.0433
GCCTGTCA | 0.107
AGGCCGAA | 0.107
GCCAGACA | 0.0311
ATGATAAT | 0.0385
GACAAGAC | -0.0408
AAGCATCT | -0.121
ACGAGTAT | -0.192
ACTGAATC | -0.0487
CCAGCGCG | 0.217
AGAAACCA | 0.0559
